Measured values of several laboratories.
Numbered parts are unrelated; each lists some results of a single study. Values joined by “and” are separate records of one study, mostly repeats; a detail may differ.
Chain of UniProt P49840 (whole entry, looked up): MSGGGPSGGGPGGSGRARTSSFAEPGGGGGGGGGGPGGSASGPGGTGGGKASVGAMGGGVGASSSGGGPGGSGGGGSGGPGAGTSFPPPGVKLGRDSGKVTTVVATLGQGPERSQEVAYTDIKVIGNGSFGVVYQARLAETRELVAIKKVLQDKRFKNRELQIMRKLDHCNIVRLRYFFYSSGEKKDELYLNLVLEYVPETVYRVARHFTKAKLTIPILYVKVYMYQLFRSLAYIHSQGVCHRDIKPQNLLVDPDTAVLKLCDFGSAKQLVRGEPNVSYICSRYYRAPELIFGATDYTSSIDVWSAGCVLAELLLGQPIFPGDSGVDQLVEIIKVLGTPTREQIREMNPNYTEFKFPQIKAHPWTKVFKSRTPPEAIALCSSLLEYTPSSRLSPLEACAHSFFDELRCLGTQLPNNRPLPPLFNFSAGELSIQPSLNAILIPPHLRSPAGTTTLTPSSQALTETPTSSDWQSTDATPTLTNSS

Set 1
Target: Activin receptor type-1-like (ACVRL1, Homo sapiens, UniProt P37023)
Chain of UniProt P37023 (whole entry, looked up): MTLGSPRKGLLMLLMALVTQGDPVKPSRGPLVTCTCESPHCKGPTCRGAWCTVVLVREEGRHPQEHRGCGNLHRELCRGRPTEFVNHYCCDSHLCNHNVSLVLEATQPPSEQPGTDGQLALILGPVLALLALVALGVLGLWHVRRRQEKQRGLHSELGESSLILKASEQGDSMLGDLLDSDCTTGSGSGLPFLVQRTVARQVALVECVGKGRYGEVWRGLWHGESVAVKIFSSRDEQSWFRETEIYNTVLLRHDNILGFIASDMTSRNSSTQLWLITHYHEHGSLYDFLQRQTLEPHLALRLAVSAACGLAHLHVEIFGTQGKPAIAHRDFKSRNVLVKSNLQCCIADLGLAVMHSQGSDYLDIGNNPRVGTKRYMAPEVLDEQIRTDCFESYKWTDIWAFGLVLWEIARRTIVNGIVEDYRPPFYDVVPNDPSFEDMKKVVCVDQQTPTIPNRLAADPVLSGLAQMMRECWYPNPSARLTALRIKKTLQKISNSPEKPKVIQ
Read-out: enzyme activity
Action: inhibitor
Concentration: 0.5 µM
Reference: control
Endpoint: remaining activity
Structure (SMILES) = Cc1ccc(S(=O)(=O)/C=C/C#N)cc1; result = 100%
Structure (SMILES) = CCCNC(=O)Nc1ccc(Oc2ncnc3cc(OC)c(OC)cc23)cc1Cl; result = 100%
Structure (SMILES) = CN1CCN(c2ccc3nc(-c4c(N)c5c(F)cccc5[nH]c4=O)[nH]c3c2)CC1; result = 125%
Structure (SMILES) = O=Nc1c(-c2c(O)[nH]c3cc(Br)ccc23)[nH]c2ccccc12; result = 103%
Structure (SMILES) = Oc1cccc(-c2nc(N3CCOCC3)c3oc4ncccc4c3n2)c1; result = 105%
Structure (SMILES) = COc1cccc(-c2cc(=O)c3ccccc3o2)c1N; result = 93.5%
Structure (SMILES) = O=C1Nc2ccccc2/C1=C\c1c(Cl)[nH]c2ccccc12; result = 99.8%
Structure (SMILES) = O=C1NC(=O)c2c1c1c3ccccc3[nH]c1n1cncc21; result = 109%
Structure (SMILES) = O=C(c1cc2cc(O)ccc2[nH]1)c1cc2cc(O)ccc2[nH]1; result = 98.4%
Structure (SMILES) = O=C1Nc2ccc(Br)cc2/C1=C/c1cc2c([nH]1)CCCC2; result = 103%

Set 2
Host: human
Matrix: microsomes or S9
Concentration: 2 µM
Time: 0.5 h
Endpoint: remaining compound
Structure (SMILES) = CCC(Oc1cc(C)ccc1Cl)C(=O)Nc1cccnc1 (stereo not shown); result = 8.08%
Structure (SMILES) = CC(C)(C)c1cc(-c2nc3c4c(ncn3n2)CCC4)n[nH]1; result = 66.8%
Structure (SMILES) = CCc1cc2c(cc3c(=O)n(CC(=O)NCC(C)c4ccccc4)nc(CC)n32)s1 (stereo not shown); result = 0.142%
Structure (SMILES) = CCOc1cc(=O)n2c(c1C(=O)NCCCOC(C)C)CCCCC2; result = 75%
Structure (SMILES) = CN(C)c1cccc2c(S(=O)(=O)NC(CC(=O)O)C(=O)O)cccc12 (stereo not shown); result = 69.2%
Structure (SMILES) = N#Cc1cccc(-n2c3ccccc3c3ccncc32)c1; result = 6.38%
Structure (SMILES) = CC(C)CC(=O)Nc1ccc(-n2cnc(C(=O)NCc3ccccc3Cl)c2)nc1; result = 94.2%
Structure (SMILES) = CN1CCCc2c(c3cc(F)ccc3n2-c2ccc(F)cc2)C1; result = 91%
Structure (SMILES) = CCS(=O)(=O)Nc1cccc(-c2cc(=O)n(-c3ccc(F)c(Cl)c3)nc2C)c1; result = > 100%
Structure (SMILES) = CCCc1cc(N2CCN(C(=O)c3ccc(C#N)cc3F)CC2)nc2nnc(CC)n12; result = 94.5%
Structure (SMILES) = c1ccc(-c2cc(-c3cc4ccccc4o3)nc3nnnn23)cc1; result = 64.9%

Set 3
Cell line: HaCaT
Concentration: 100 µM
Time: 60 h
Endpoint: viability
SMILES = CC(C)NCC(O)COc1cccc2[nH]c3ccccc3c12 (stereo not shown); result = 16.3%
SMILES = COc1ccc(CN(CCN(C)C)c2ccccn2)cc1; result = 146%
SMILES = Cc1c(CNCS(=O)(=O)O)c(=O)n(-c2ccccc2)n1C; result = 147%
SMILES = CCCCCCCCCCCCCCCCOc1nc2ccc(C)cc2c(=O)o1; result = 134%
SMILES = Cc1c(-c2ccc(O)cc2)n(Cc2ccc(OCCN3CCCCCC3)cc2)c2ccc(O)cc12; result = 22.1%
SMILES = C=CC1=C(C(=O)O)N2C(=O)[C@@H](NC(=O)/C(=N\OCC(=O)O)c3csc(N)n3)[C@H]2SC1; result = 116%

Single results of other studies
Compound = C[C@@H](NC(=O)Nc1cc2[nH]ncc2c(CO)n1)c1ccccc1; target = Glycogen synthase kinase-3 alpha (GSK3A, Homo sapiens, UniProt P49840); test = target engagement, NanoBRET; test system = live cells; endpoint = EC50; result = 15.2 µM and 11.4 µM and 11.6 µM

Repeated from above (set 2):
Structure (SMILES) = CCOc1cc(=O)n2c(c1C(=O)NCCCOC(C)C)CCCCC2; result = 75%
Structure (SMILES) = CN(C)c1cccc2c(S(=O)(=O)NC(CC(=O)O)C(=O)O)cccc12 (stereo not shown); result = 69.2%
